Assay results pooled from the literature.
Lines come from different studies, so protocols differ. Values joined by “and” are separate records of one study, mostly repeats; a detail may differ. ± marks the error that the study gave.

Structure (SMILES) | test | system | conditions | scale | quantity | value
COC1OC(C)C(OS(=O)(=O)O)C(OC2OC(C)C(OS(=O)(=O)O)C(OC3OC(C)C(OS(=O)(=O)O)C(OC4OC(C)C(OS(=O)(=O)O)C(OC5OC(C)C(OS(=O)(=O)O)C(OC6OC(C)C(OS(=O)(=O)O)C(OC7OC(C)C(OS(=O)(=O)O)C(OC8OC(C)C(OS(=O)(=O)O)C(OS(=O)(=O)O)C8O)C7O)C6O)C5O)C4O)C3O)C2O)C1O (stereo not shown) | – | human plasma | 128 µg/mL | relative to: control | thrombin time prolongation | 0.9 fold
COc1ccc(C(=O)CCc2cc(C(CCc3ccc(O)cc3OC)c3ccc(O)cc3)c(O)cc2OC)cc1 (racemic) | – | human blood | 1 µM, added: A23187 | – | PGE2 level | 39 ± 8 pg/mL
COC1OC(C)C(OC2OC(C)C(OS(=O)(=O)O)C(OC3OC(C)C(OC4OC(C)C(OS(=O)(=O)O)C(OC5OC(C)C(OC6OC(C)C(OS(=O)(=O)O)C(OC7OC(C)C(OC8OC(C)C(OS(=O)(=O)O)C(OC9OC(C)C(OS(=O)(=O)O)C(OS(=O)(=O)O)C9O)C8O)C(OS(=O)(=O)O)C7O)C6O)C(OS(=O)(=O)O)C5O)C4O)C(OS(=O)(=O)O)C3O)C2O)C(OS(=O)(=O)O)C1O (stereo not shown) | – | human plasma | 128 µg/mL | – | thrombin time | 10.4 ± 0.2 s
COc1ccc(NC(=O)c2ccc3[nH]c(-c4ccc(N(C)C)cc4)nc3c2)cn1 | – | Lewis lung carcinoma, mice, syngeneic graft, subcutaneous | intraperitoneal, 50 mg/kg daily, day 0 | – | tumour volume | 117 mm3 and 111 mm3 and 103 mm3 and 189 mm3
CCC(=O)N[C@@H](C)C(=O)OCC(=O)N[C@@H](C)C(=O)O | – | water | pH 8, 65 °C | – | chain scission rate constant | 0.792 h⁻¹
Cc1ccc(N(O)/N=N/c2ccc(S(=O)(=O)Nc3nccs3)cc2)cc1 | DPPH scavenging, absorbance | – | 60 µg/mL | – | inhibition | 26.5%
COC1CN([C@H]2CC[C@H]([C@@]3(C)Oc4c(Cl)cc(C(=O)NCc5c(SC)cc(C)[nH]c5=O)c(C)c4O3)CC2)C1 | RNA-seq, refers to: MAGI2 | human, whole blood | dose not given, 24 h | relative to: pretreatment baseline | log2 fold change | 1.74
O=CCNCCOn1c(=O)n(OCCNCCO)c(=O)n(OCCNCCOn2c(=O)n(OCCNCCO)c(=O)n(OCCNCCO)c2=O)c1=O | DPPH scavenging | – | 31.25 µg/mL | – | inhibition | 15%
COC1OC(C)C(OS(=O)(=O)O)C(OC2OC(C)C(OS(=O)(=O)O)C(OS(=O)(=O)O)C2O)C1O (stereo not shown) | – | human plasma | 128 µg/mL | relative to: control | thrombin time prolongation | 0.9 fold
O=c1c(-c2ccc(Cl)c(CN3CCOCC3)c2)coc2cc(O)ccc12 | – | castrated mice, VCaP xenograft, DHEA pellets | oral, 10 or 30 mg/kg/day | – | tumour weight | decreased
COC1OC(C)C(O)C(OC2OC(C)C(O)C(OC3OC(C)C(O)C(OC4OC(C)C(O)C(OC5OC(C)C(O)C(OC6OC(C)C(O)C(OC7OC(C)C(O)C(OC8OC(C)C(O)C(OC9OC(C)C(O)C(OC%10OC(C)C(O)C(OC%11OC(C)C(O)C(OC%12OC(C)C(O)C(OS(=O)(=O)O)C%12OS(=O)(=O)O)C%11OS(=O)(=O)O)C%10OS(=O)(=O)O)C9OS(=O)(=O)O)C8OS(=O)(=O)O)C7OS(=O)(=O)O)C6OS(=O)(=O)O)C5OS(=O)(=O)O)C4OS(=O)(=O)O)C3OS(=O)(=O)O)C2OS(=O)(=O)O)C1OS(=O)(=O)O (stereo not shown) | – | human plasma | 128 µg/mL | relative to: control | thrombin time prolongation | 1 fold
COc1cc2c(NC3CCN(C(C)C)CC3)cc(N3CCOCC3)nc2cc1OCCCN1CCCC1 | TMT quantitative proteomics, refers to: GOT1 (cytoplasmic) | APP AD model mice, hippocampus | dose not given | – | normalised protein abundance | -0.00393 and -0.0224 and -0.0119 and -0.0206 and 0.015 and -0.02 and 0.0171 and 0.0417
O=C(N[C@@H](Cc1coc2ccccc12)B(O)O)[C@@H]1C[C@H]2CC[C@@H]1O2 | tumour growth | U266B1, mouse, U266B1 multiple myeloma xenograft | oral, 1 mg/kg twice weekly | – | T/C | -57%
COC1OC(C)C(OS(=O)(=O)O)C(OC2OC(C)C(OS(=O)(=O)O)C(OC3OC(C)C(OS(=O)(=O)O)C(OC4OC(C)C(OS(=O)(=O)O)C(OS(=O)(=O)O)C4O)C3O)C2O)C1O (stereo not shown) | – | human plasma | 128 µg/mL | – | thrombin time | 9.2 s
C=Cc1c(C)c2cc3nc(c(CC(=O)[O-])c4[n-]c(cc5nc(cc1[n-]2)C(C)=C5CC)c(C)c4C(=O)[O-])C(CCC(=O)[O-])C3C.[Cu+2].[Na+].[Na+].[Na+] (stereo not shown) | – | C57BL/6 mouse, female, cyclophosphamide-induced cystitis | dose not given | relative to: cyclophosphamide alone | IL-22 level | increased
CC(C)C[C@H](NC(=O)CNC(=O)[C@H](CCC(N)=O)NC(=O)[C@H](CC(C)C)NC(=O)[C@H](CC(C)C)NC(=O)[C@H](CCCNC(=N)N)NC(=O)[C@H](CCC(N)=O)NC(=O)[C@H](CC(C)C)NC(=O)[C@H](CCCNC(=N)N)NC(=O)[C@H](C)NC(=O)CNC(=O)[C@H](CCC(=O)O)NC(=O)[C@H](CCCNC(=N)N)NC(=O)[C@H](CC(C)C)NC(=O)[C@H](CCCNC(=N)N)NC(=O)[C@H](CO)NC(=O)[C@H](CC(C)C)NC(=O)[C@H](CCC(=O)O)NC(=O)[C@H](CO)NC(=O)[C@@H](NC(=O)[C@H](Cc1ccccc1)NC(=O)[C@@H](NC(=O)CNC(=O)[C@H](CC(=O)O)NC(=O)C(C)(C)NC(=O)[C@@H](N)Cc1c[nH]cn1)[C@@H](C)O)[C@@H](C)O)C(=O)N[C@@H](CC(C)C)C(=O)N[C@@H](CCC(N)=O)C(=O)NCC(=O)N[C@@H](CC(C)C)C(=O)N[C@H](C(=O)NCC(=O)N[C@@H](CCCCNC(=O)COCCOCCNC(=O)COCCOCCNC(=O)CC[C@H](NC(=O)CCCCCCCCCCCCCCCCC(=O)O)C(=O)O)C(N)=O)C(C)C | – | DIO C57BL/6J mice | sc, 300 nmol/kg twice daily, 8 days | – | dark-phase energy expenditure | increased
COC1OC(C)C(OC2OC(C)C(O)C(OC3OC(C)C(OC4OC(C)C(O)C(OC5OC(C)C(OC6OC(C)C(O)C(OS(=O)(=O)O)C6OS(=O)(=O)O)C(OS(=O)(=O)O)C5OS(=O)(=O)O)C4OS(=O)(=O)O)C(OS(=O)(=O)O)C3OS(=O)(=O)O)C2OS(=O)(=O)O)C(OS(=O)(=O)O)C1OS(=O)(=O)O (stereo not shown) | – | human plasma | 128 µg/mL | – | thrombin time | 10.3 ± 0.2 s
CC(C)(C)NCC(SS(=O)(=O)O)c1ccccc1 (stereo not shown) | – | Swiss Webster mice, Schistosoma mansoni-infected | 100 mg/kg single dose on day 42 post-infection, perfusion day 56 post-infection | relative to: vehicle | spleen weight decrease | 22%
COc1cc(O)ccc1CCC(c1ccc(O)cc1)c1cc2c(c(C)c1O)OC(c1ccc(O)cc1)CC2 (mixture of isomers) | – | human blood | 1 µM, added: A23187 | – | 5-HETE level | 4400 ± 1860 pg/mL

Excerpt of the above:
Structure (SMILES) | test | system | conditions | scale | quantity | value
O=c1c(-c2ccc(Cl)c(CN3CCOCC3)c2)coc2cc(O)ccc12 | – | castrated mice, VCaP xenograft, DHEA pellets | oral, 10 or 30 mg/kg/day | – | tumour weight | decreased
COC1OC(C)C(O)C(OC2OC(C)C(O)C(OC3OC(C)C(O)C(OC4OC(C)C(O)C(OC5OC(C)C(O)C(OC6OC(C)C(O)C(OC7OC(C)C(O)C(OC8OC(C)C(O)C(OC9OC(C)C(O)C(OC%10OC(C)C(O)C(OC%11OC(C)C(O)C(OC%12OC(C)C(O)C(OS(=O)(=O)O)C%12OS(=O)(=O)O)C%11OS(=O)(=O)O)C%10OS(=O)(=O)O)C9OS(=O)(=O)O)C8OS(=O)(=O)O)C7OS(=O)(=O)O)C6OS(=O)(=O)O)C5OS(=O)(=O)O)C4OS(=O)(=O)O)C3OS(=O)(=O)O)C2OS(=O)(=O)O)C1OS(=O)(=O)O (stereo not shown) | – | human plasma | 128 µg/mL | relative to: control | thrombin time prolongation | 1 fold
